Experimental data gathered from unrelated publications.
Lines come from different studies, so protocols differ. ± gives the spread as reported. In brackets after ≈: the same amount, converted by molar mass.

Chains of the proteins cited; added tags and fusions are not shown.
UniProt P29317, whole entry, looked up: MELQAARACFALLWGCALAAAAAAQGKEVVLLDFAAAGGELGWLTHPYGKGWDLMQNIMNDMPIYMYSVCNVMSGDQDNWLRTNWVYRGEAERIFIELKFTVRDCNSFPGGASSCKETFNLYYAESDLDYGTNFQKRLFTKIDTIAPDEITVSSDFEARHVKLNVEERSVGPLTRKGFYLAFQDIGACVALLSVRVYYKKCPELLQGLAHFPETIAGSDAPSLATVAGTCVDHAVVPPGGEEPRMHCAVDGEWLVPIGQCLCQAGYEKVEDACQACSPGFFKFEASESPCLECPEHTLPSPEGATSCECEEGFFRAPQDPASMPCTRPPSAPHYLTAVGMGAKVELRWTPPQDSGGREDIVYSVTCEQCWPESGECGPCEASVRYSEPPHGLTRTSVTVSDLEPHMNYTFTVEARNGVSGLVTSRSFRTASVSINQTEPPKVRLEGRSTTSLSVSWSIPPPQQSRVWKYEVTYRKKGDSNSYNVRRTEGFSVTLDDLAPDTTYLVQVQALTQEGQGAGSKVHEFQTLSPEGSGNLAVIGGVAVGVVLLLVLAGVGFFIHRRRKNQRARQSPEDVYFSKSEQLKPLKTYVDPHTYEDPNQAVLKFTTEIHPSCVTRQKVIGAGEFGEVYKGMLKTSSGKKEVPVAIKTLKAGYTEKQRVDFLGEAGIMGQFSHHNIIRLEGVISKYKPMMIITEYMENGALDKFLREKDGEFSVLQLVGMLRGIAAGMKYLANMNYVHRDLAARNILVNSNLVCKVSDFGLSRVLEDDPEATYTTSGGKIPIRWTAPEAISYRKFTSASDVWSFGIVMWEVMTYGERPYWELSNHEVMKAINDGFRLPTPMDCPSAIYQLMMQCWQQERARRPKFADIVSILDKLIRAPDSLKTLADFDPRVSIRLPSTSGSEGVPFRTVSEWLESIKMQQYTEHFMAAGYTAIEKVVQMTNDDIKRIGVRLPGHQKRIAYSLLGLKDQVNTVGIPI

| Molecule | tested on | assay | system | conditions | how to read | measurement | result |
| --- | --- | --- | --- | --- | --- | --- | --- |
| C[C@H](Cc1ccc(O)c(O)c1)[C@@H](C)Cc1ccc(O)c(O)c1 | – | – | human skin | 4% w/v solution, 24 h | – | total amount delivered | 30.5 ± 3.17 µg |
| O=C(O)c1cc(-c2ccc(-c3cc(CO)on3)cc2)c2ccc(-c3ccc(C(F)(F)F)cc3)cc2c1 | – | – | rat Wistar male | intraperitoneal, 10 mg/kg, 24 h | – | MRT(0-t) | 5.02 h |
| C[C@@H]1NC(=O)[C@@H]2CCCN2C(=O)[C@H](CC(N)=O)NC(=O)[C@H](Cc2c[nH]c3ccccc23)NC(=O)[C@@H]2CSSC[C@@H](C(N)=O)NC(=O)[C@H](Cc3ccc(O)cc3)NC(=O)[C@H](Cc3c[nH]cn3)NC(=O)[C@H](CCCCN)NC(=O)CNC(=O)[C@H](CSSC[C@H](NC(=O)CN)C(=O)N2)NC1=O | – | RP-HPLC | mouse serum 25% in water | 50 µM, 24 h, 37 °C | – | remaining peptide | 1.44 ± 0.26% |
| CC#C/C(=N\OC[C@H]1COCCN1)c1ccc2ncnc(Nc3ccc(OCc4cccc(F)c4)c(Cl)c3)c2c1 | EPHA2 (Homo sapiens, UniProt P29317) | kinase activity | – | 10 µM | – | inhibition | 37.7% |
| C=C(C)[C@@H]1[C@H]2OC(=O)[C@@H]1[C@]1(O)C[C@H]3O[C@]34C(=O)O[C@H]2[C@]14C | – | – | male NIH-NCI Swiss mice | intraperitoneal, 2 mg/kg | – | lethality | 25% |
| N-methyl-N′-nitro-N-nitrosoguanidine | – | – | EpiDerm EPI-200-MNA skin tissue | – | – | micronucleus induction | positive |
| CC[C@@H](C(N)=O)N1CCCC1=O | – | LC-MS/MS | rat, control, whole blood | intramuscular, 50 mg/kg levetiracetam, together with: atropine 5 mg/kg | – | terminal half-life | 3.03 h |
| CCCCCCCCCCCCCCCC(=O)NCCCC[C@H](NC(=O)CNC(=O)[C@H](CO)NC(=O)CNC(=O)[C@H](CCC(N)=O)NC(=O)[C@H](Cc1c[nH]cn1)NC(=O)[C@H](Cc1c[nH]c2ccccc12)NC(=O)[C@H](CC(N)=O)NC(=O)CNC(=O)[C@@H](NC(=O)[C@H](CO)NC(=O)[C@H](CC(=O)O)NC(=O)[C@H](CC(C)C)NC(=O)[C@@H](NC(=O)[C@H](CCCCN)NC(=O)[C@H](CC(N)=O)NC(=O)[C@H](CO)NC(=O)[C@H](CCCNC(=N)N)NC(=O)[C@H](CCCNC(=N)N)NC(=O)[C@@H](NC(=O)[C@H](Cc1c[nH]c2ccccc12)NC(=O)[C@H](CCC(=O)O)NC(=O)[C@H](CCCCN)NC(=O)[C@H](CO)NC(=O)[C@H](CCC(=O)O)NC(=O)[C@H](CCC(=O)O)NC(=O)[C@H](CC(C)C)NC(=O)[C@H](CC(=O)O)NC(=O)[C@H](CO)NC(=O)[C@H](CCCCN)NC(=O)[C@@H](NC(=O)[C@H](CCCCN)NC(=O)[C@H](CC(N)=O)NC(=O)[C@H](CC(C)C)NC(=O)[C@@H](NC(=O)[C@@H](NC(=O)[C@H](CO)NC(=O)[C@@H](NC(=O)[C@H](CC(=O)O)NC(=O)[C@@H](N)[C@@H](C)CC)[C@@H](C)CC)[C@@H](C)CC)C(C)C)[C@@H](C)CC)[C@@H](C)CC)[C@@H](C)CC)[C@@H](C)CC)C(=O)O | – | – | PBS | – | – | solubility | 0.07 ± 0.02 mg/mL (≈ 14.4 µM) |
| Cc1cc(N(CCOS(C)(=O)=O)CCOS(C)(=O)=O)ccc1C(=O)O | – | – | mouse, plasma | iv, 20 mg/kg | – | half-life | 0.917 h |
| CCN1CCN(Cc2ccc(NC(=O)c3ccc(C)c(/C=C/c4cnc5[nH]ccc5c4OC)c3)cc2C(F)(F)F)CC1 | TSSK2 (Homo sapiens, UniProt Q96PF2) | inhibitor, cell-based kinome screen | – | 5 µM | relative to: vehicle | log2 fold change | 0.968 |

Repeated from above:
| Molecule | tested on | assay | system | conditions | how to read | measurement | result |
| --- | --- | --- | --- | --- | --- | --- | --- |
| O=C(O)c1cc(-c2ccc(-c3cc(CO)on3)cc2)c2ccc(-c3ccc(C(F)(F)F)cc3)cc2c1 | – | – | rat Wistar male | intraperitoneal, 10 mg/kg, 24 h | – | MRT(0-t) | 5.02 h |
